Assay results pooled from the literature.
A part holds a random share of what one study measured.

Sample 1 — method: competition protein-binding microarray; form: double-stranded DNA, one strand shown; matrix: in vitro; concentration: 2 µM; added: Cbf1 competitor, 0.05 µM; direction: higher = stronger binding; endpoint: fluorescence intensity
Target: Phosphate system positive regulatory protein PHO4, full length, GST-tagged (PHO4, Saccharomyces cerevisiae, UniProt P07270, residues 1-312)
Setting: whole 60-bp probe, lowest competitor level
Target sequence (chain): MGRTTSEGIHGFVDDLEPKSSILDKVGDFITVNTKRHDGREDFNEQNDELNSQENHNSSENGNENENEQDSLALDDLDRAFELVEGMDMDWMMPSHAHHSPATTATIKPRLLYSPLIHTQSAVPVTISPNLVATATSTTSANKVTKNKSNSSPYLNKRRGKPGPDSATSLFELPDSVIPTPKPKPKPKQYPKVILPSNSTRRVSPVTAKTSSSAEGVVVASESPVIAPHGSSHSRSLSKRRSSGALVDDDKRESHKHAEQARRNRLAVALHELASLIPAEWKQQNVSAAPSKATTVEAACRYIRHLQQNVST
Strand = TGCACGGAGTCTTAAAACACTCCGATTTGGATACCTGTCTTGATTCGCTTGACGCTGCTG; value = 5140 a.u.
Strand = CGTCCTAGTGATTGTCACACGACTTCCATGAGGAAGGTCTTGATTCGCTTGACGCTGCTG; value = 6410 a.u.
Strand = CTTCAGTGTTTTTAGCACGTTTTAGAGCAGCAGGATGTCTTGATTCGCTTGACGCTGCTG; value = 15300 a.u.
Strand = GTCTTGTCTCATTGACTAGTGGGTGTCCCCACTTCAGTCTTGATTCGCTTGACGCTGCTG; value = 4140 a.u.
Strand = CTTCTGTAAATTTGTCACGTGTTTTGACGCGCCCCGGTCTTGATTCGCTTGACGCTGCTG; value = 13800 a.u.
Strand = TGCGCAACAACTTGTCACTCGACTTTATGTCTAGAAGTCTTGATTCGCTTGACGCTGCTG; value = 3200 a.u.
Strand = GATGGAATTACCCATCACGCTCCTCTCTTATGACTAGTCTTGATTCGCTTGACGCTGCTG; value = 5810 a.u.

Sample 2 — method: protein binding microarray; form: double-stranded DNA, one strand shown; matrix: in vitro; concentration: not given; relative to: not given; direction: higher = stronger binding; endpoint: E-score
Target: Histone acetyltransferase KAT6A, winged helix 2, GST fusion (KAT6A, Homo sapiens, UniProt Q92794, residues 85-181)
Setting: 8-mer, flanks averaged, mean of 2 arrays, mostly near background
Target sequence (chain): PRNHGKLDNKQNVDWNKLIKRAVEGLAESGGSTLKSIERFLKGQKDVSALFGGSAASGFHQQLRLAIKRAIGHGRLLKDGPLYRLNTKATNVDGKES
Strand = CAAATGAG; value = -0.0506
Strand = CCGCAGAC; value = 0.0484
Strand = ACTGCAAA; value = -0.0706
Strand = CGGGTTTA; value = 0.0571

Sample 3 — method: aptamer microarray, sandwich; form: DNA with 2'F-ANA; matrix: in vitro; concentration: 200 nM; added: Cy3 exosite-II aptamer, 400 nM; direction: higher = stronger binding; endpoint: mean fluorescence intensity; strand: GGTTGGTGTGGTTGG
Target: Prothrombin, mature alpha-thrombin (F2, Homo sapiens, UniProt P00734)
Setting: whole 15-mer aptamer, many near background
Modification = 2'F-ANA at 1 2 4 5 7 8 9 10 11 12; value = 60.9 a.u.
Modification = 2'F-ANA at 1 2 3 4 8 15; value = 262 a.u.
Modification = 2'F-ANA at 3 6 7 8 9 10 11 12 15; value = 490 a.u.
Modification = 2'F-ANA at 1 3 4 10 11 12 13 14; value = 65.1 a.u.
Modification = 2'F-ANA at 1 3 5 9 10 12 14 15; value = 53.5 a.u.

Other studies, line by line
Substance = PhoQ, residues 284 288 289 292 302 303 GANMMA; target = PhoP, residues 12 14 15 18 19 SQCLL (Escherichia coli, UniProt P23836); assay = Sort-seq, item: YFP reporter; system = E. coli; conditions = PhoQ-PhoP variant library, added: 10 µM Mg2+; scale = relative to: high Mg2+ state, higher = stronger signaling; endpoint = fold induction; value = 10.9

A few entries again (sample 2):
Strand = CAAATGAG; value = -0.0506
Strand = ACTGCAAA; value = -0.0706
